Assay results pooled from the literature.
Lines come from different studies, so protocols differ. ± marks the error that the study gave.
Sequence of UniProt P01258 (whole entry, looked up): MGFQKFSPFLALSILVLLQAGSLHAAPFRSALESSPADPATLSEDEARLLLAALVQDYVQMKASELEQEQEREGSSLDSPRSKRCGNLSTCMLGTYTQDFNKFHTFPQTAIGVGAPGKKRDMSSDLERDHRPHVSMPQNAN
Sequence of UniProt P05067 (whole entry, looked up): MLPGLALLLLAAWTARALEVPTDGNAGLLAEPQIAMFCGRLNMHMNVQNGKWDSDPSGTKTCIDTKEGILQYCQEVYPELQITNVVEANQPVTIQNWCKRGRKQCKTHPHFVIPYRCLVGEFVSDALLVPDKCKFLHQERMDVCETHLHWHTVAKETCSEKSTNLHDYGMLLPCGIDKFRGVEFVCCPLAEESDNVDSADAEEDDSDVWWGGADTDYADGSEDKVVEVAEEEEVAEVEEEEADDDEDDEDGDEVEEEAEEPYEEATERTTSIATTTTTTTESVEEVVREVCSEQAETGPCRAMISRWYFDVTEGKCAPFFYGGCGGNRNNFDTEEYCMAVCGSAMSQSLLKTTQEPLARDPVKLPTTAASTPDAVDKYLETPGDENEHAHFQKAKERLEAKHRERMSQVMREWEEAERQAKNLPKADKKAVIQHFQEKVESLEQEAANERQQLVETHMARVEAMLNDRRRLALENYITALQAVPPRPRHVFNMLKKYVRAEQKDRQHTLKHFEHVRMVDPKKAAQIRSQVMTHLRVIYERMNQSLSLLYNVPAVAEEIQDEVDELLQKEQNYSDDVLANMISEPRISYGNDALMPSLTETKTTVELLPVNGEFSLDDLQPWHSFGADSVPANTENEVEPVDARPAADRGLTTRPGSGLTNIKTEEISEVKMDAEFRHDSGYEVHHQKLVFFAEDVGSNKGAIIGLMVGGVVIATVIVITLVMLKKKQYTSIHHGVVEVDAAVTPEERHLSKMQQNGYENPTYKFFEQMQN
Sequence of UniProt O35082 (whole entry, looked up): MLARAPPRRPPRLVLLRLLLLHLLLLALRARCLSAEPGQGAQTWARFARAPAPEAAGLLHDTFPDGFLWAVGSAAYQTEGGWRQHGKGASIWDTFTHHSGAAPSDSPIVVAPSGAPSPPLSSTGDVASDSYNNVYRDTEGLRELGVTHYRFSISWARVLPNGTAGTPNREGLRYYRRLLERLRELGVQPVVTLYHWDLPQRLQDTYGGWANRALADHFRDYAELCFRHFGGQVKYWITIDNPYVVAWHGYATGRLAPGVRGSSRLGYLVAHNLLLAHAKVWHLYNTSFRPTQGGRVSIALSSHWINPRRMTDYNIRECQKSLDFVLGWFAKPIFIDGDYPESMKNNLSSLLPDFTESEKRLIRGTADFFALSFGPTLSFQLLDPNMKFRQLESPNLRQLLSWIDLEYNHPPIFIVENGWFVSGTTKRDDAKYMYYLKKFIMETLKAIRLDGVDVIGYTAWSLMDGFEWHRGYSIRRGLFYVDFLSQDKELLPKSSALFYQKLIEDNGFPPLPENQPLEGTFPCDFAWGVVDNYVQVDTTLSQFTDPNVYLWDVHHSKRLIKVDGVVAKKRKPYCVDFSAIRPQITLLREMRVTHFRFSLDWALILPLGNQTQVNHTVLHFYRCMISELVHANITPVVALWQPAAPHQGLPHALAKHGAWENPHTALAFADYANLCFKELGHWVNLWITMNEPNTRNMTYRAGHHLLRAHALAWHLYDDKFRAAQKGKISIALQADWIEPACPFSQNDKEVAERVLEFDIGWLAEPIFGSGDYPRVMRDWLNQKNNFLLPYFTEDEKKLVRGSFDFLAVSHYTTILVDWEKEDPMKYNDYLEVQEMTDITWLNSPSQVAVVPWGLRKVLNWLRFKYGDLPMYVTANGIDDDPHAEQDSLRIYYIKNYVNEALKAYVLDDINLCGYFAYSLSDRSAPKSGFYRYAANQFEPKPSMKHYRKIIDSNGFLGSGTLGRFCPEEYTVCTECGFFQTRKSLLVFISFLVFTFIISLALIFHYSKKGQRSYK
Sequence of UniProt Q9NZC7 (whole entry, looked up): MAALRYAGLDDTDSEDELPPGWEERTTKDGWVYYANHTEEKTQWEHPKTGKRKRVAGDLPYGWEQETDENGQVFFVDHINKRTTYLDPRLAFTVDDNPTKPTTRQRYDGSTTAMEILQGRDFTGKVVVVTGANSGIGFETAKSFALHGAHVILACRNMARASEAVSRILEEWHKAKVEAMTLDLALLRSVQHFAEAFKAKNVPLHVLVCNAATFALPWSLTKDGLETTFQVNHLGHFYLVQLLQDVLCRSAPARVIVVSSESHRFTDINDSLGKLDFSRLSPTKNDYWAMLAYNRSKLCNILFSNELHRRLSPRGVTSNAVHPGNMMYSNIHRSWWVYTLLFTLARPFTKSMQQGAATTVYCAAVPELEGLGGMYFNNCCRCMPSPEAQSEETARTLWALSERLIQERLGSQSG
Sequence of UniProt Q05097 (whole entry, looked up): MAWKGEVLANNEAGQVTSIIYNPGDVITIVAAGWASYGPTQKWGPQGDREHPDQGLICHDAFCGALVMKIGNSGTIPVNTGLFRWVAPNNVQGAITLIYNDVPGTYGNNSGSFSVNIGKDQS
Sequence of UniProt P63104 (whole entry, looked up): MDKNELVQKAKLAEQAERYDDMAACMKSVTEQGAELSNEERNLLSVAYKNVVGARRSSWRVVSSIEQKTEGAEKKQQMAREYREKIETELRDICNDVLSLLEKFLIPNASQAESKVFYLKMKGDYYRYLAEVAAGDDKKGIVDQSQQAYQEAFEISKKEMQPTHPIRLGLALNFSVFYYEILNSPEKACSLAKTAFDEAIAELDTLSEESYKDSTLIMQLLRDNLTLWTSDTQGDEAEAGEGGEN
Sequence of UniProt A0A2U7XUH7 (whole entry, unmodified, looked up): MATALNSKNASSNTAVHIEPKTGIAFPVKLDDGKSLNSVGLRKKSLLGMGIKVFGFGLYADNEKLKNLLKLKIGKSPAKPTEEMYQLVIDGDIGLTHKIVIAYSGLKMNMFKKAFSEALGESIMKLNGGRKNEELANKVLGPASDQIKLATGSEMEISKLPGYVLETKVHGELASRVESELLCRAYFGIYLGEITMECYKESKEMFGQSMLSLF
Sequence of UniProt Q9FIP9 (whole entry, looked up): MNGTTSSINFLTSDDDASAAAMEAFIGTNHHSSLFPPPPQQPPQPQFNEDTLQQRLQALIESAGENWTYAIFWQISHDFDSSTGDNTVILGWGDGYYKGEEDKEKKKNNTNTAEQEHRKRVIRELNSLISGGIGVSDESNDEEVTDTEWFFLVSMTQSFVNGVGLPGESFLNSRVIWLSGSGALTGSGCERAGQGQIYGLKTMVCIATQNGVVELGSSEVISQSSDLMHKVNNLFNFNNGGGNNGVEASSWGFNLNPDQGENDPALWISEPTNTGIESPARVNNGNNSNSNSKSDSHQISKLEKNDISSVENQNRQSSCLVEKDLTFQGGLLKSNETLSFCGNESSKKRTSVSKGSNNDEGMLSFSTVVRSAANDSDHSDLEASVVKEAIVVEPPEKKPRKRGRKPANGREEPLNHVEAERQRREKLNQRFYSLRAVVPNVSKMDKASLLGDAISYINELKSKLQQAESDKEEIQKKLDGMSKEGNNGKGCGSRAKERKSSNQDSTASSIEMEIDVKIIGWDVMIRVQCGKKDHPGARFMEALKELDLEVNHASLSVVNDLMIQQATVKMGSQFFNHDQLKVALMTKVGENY
Sequence of UniProt O75151 (whole entry, looked up): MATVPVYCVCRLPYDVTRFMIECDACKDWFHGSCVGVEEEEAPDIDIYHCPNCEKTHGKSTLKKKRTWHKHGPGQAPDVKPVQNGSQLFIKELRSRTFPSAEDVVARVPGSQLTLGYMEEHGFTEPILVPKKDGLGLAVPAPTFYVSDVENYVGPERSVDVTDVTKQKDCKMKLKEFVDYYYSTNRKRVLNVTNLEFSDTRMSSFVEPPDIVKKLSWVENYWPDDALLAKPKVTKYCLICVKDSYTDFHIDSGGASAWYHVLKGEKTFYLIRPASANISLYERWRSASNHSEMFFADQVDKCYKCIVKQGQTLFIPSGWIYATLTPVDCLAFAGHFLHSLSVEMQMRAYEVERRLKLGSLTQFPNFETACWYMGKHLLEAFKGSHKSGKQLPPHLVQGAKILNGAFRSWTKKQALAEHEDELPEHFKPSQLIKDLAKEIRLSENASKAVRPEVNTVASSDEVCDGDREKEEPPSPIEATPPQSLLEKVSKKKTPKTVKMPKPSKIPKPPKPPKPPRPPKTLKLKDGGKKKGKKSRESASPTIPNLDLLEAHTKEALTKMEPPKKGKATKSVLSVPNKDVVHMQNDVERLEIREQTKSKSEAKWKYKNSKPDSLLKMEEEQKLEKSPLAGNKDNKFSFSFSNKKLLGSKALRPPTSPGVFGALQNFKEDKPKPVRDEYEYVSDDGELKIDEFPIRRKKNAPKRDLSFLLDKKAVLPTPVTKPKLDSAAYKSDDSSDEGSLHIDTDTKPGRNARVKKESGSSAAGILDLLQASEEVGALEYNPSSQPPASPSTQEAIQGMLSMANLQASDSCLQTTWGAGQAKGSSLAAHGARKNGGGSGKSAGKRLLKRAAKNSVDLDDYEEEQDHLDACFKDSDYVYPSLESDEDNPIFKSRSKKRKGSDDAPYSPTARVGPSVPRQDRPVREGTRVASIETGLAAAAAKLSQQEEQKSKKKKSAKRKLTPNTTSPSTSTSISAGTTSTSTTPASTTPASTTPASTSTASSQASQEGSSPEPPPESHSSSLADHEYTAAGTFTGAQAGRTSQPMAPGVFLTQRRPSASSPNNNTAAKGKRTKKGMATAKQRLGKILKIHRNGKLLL

CC[C@H](C)[C@H](NC(=O)[C@@H](NC(=O)[C@H](Cc1c[nH]c2ccccc12)NC(=O)[C@H](CCC(=O)O)NC(=O)[C@H](C)NC(=S)Nc1ccc2c(c1)C(=O)OC21c2ccc(O)cc2Oc2cc(O)ccc21)C(C)C)C(=O)N[C@H](C(=O)N[C@H](C(=O)N1CCC[C@H]1C(=O)N[C@@H](Cc1ccccc1)C(=O)N[C@@H](CC(C)C)C(=O)N[C@H](C(=O)N[C@@H](CC(N)=O)C(=O)N[C@@H](CC(C)C)C(=O)O)[C@@H](C)O)[C@@H](C)CC)C(C)C
Kd (Rgg transcriptional regulator (Streptococcus pneumoniae, UniProt A0A0E7KI02); binder, fluorescence polarization; 20 min, pH 7.4, 20 °C, fluorescein-labelled peptide): 8.1 ± 0.9 µM

CC(C)C[C@H](NC(=O)[C@H](Cc1c[nH]cn1)NC(=O)[C@H](CCC(N)=O)NC(=O)[C@@H]1CCCN1C(=O)[C@H](CC(N)=O)NC(=O)CNC(=O)[C@H](CCC(N)=O)NC(=O)[C@H](CCCC[N+](C)(C)C)NC(=O)[C@H](CCCNC(=N)N)NC(=O)[C@H](CCCNC(=N)N)NC(=O)[C@@H](N)CO)C(=O)N[C@@H](CO)C(=O)O
Kd (Lysine-specific demethylase PHF2, PHD and JmjC domains (Homo sapiens, UniProt O75151); pH 8, 25 °C): > 7 µM

O=C(/C=C/c1ccc(O)cc1)c1c(O)cc(O)cc1O
Kd (Chalcone isomerase-like protein 1 (CHIL1, Humulus lupulus, UniProt A0A2U7XUH7, V139F); binding, differential scanning fluorimetry): 7.61 µM

CC[C@H](C)[C@H](NC(=O)[C@H](Cc1c[nH]cn1)NC(=O)[C@H](CCCCNC(=O)[C@@H](NC(=O)[C@H](CCCCN)NC(=O)[C@H](Cc1ccccc1)NC(=O)[C@H](CCCCNC(=O)[C@H](CC(C)C)NC(=O)[C@@H]1CCCN1C(=O)[C@H](CCCCN)NC(=O)CCS[C@@H]1O[C@H](CO)[C@H](O)[C@H](O)[C@H]1O)NC(=O)[C@H](CC(C)C)NC(=O)[C@@H]1CCCN1C(=O)[C@H](CCCCN)NC(=O)CCS[C@@H]1O[C@H](CO)[C@H](O)[C@H](O)[C@H]1O)[C@@H](C)CC)NC(=O)[C@@H](NC(=O)[C@H](CCCCN)NC(=O)[C@H](Cc1ccccc1)NC(=O)[C@H](CCCCNC(=O)[C@H](CC(C)C)NC(=O)[C@@H]1CCCN1C(=O)[C@H](CCCCN)NC(=O)CCS[C@@H]1O[C@H](CO)[C@H](O)[C@H](O)[C@H]1O)NC(=O)[C@H](CC(C)C)NC(=O)[C@@H]1CCCN1C(=O)[C@H](CCCCN)NC(=O)CCS[C@@H]1O[C@H](CO)[C@H](O)[C@H](O)[C@H]1O)[C@@H](C)CC)C(N)=O
Kd (lecA (Pseudomonas aeruginosa, UniProt Q05097); binding, ITC; pH 7.5): 0.04 µM

CC[C@H](C)[C@@H]1NC(=O)CNC(=O)[C@H](CCSC)NC(=O)[C@H](C(C)C)NC(=O)[C@H]([C@@H](C)O)NC(=O)[C@@H]2CSSC[C@@H]3NC(=O)[C@H](Cc4c[nH]cn4)NC(=O)[C@@H](NC(=O)[C@@H](NC(=O)[C@H](Cc4ccccc4)NC(=O)[C@H](C)N)[C@@H](C)O)CSSC[C@@H](C(=O)N[C@@H](CC(C)C)C(=O)O)NC(=O)[C@H](CSSC[C@H](NC(=O)[C@H](CO)NC(=O)[C@H](CCCNC(=N)N)NC(=O)[C@H](CCCNC(=N)N)NC3=O)C(=O)N[C@@H](Cc3ccc(O)cc3)C(=O)N[C@@H](CO)C(=O)N[C@@H]([C@@H](C)O)C(=O)N[C@@H](CCC(=O)O)C(=O)N[C@@H](Cc3ccc(O)cc3)C(=O)N[C@@H](CO)C(=O)N[C@@H](Cc3ccc(O)cc3)C(=O)NCC(=O)N[C@@H]([C@@H](C)O)C(=O)N2)NC(=O)[C@H](Cc2ccccc2)NC(=O)[C@H](CCCNC(=N)N)NC(=O)[C@H](Cc2c[nH]cn2)NC(=O)[C@H](CC(N)=O)NC1=O
Kd (CALCA (Homo sapiens, UniProt P01258); binding, SPR): 3.77 µM

Cc1n[nH]c2ncc(-c3ccc(Cl)cc3N)cc12
Kd (LTA4H (Homo sapiens, UniProt P09960)): 2.7 µM

Cc1cc(-c2ccc3ccccc3c2)nnc1NCCN1CCN(C)CC1
Kd (HTR2B (Homo sapiens, UniProt P41595); β-arrestin-1 recruitment, antagonist, Schild analysis; added: serotonin): 0.102 µM

CC(C)C[C@H](NC(=O)[C@@H]1CCCN1C(=O)[C@H](CC(=O)O)NC(=O)[C@H](CO)NC(=O)[C@H](C)NC(=O)CC1c2ccccc2-c2ccccc21)C(=O)NCC(=O)N[C@H](C(=O)N[C@H](C(=O)N[C@@H](CCCNC(=N)N)C(=O)N1CCC[C@H]1C(=O)N[C@@H](CCCNC(=N)N)C(=O)N[C@@H](C)C(=O)N[C@@H](CCCNC(=N)N)C(N)=O)C(C)C)C(C)C
Kd (Klotho (Kl, Mus musculus, UniProt O35082); BLI competition binding; 30 min, 30 °C, added: 100 nM mouse Klotho, immobilized Pep-10-Biotin): 0.064 ± 0.027 µM

CC(C)C[C@H](NC(=O)[C@H](CCC(N)=O)NC(=O)[C@H](CCCCN)NC(=O)[C@H](CCCNC(=N)N)NC(=O)[C@@H]1CCCN1C(=O)[C@H](C)NC(=O)[C@H](CCCCN)NC(=O)CNC(=O)[C@@H]1CCCN1C(=O)[C@@H](NC(=O)[C@H](COP(=O)(O)O)NC(=O)[C@H](CCCCN)NC(=O)[C@H](CCCNC(=N)N)NC(=O)[C@H](C)NC(=O)[C@@H](NC(=O)[C@H](CCC(N)=O)NC(=O)[C@H](CCCCN)NC(=O)[C@@H](NC(=O)[C@H](CCCNC(=N)N)NC(=O)[C@H](C)N)[C@@H](C)O)[C@@H](C)O)[C@@H](C)O)C(=O)O
Kd (YWHAZ (Homo sapiens, UniProt P63104); binding, fluorescence polarization; added: modified histone H3 peptides): 19.9 µM

CC[C@H](C)[C@H](NC(=O)[C@@H]1CCCN1C(=O)[C@@H]1CCCN1C(=O)[C@@H]1CCCN1C(=O)[C@@H](NC(=O)[C@H](CC(N)=O)NC(=O)[C@H](Cc1ccccc1)NC(=O)[C@H](C)N)[C@@H](C)CC)C(=O)N[C@@H](Cc1ccc(O)cc1)C(=O)N[C@H](C(=O)N[C@@H](CO)C(=O)N[C@@H](CCCNC(=N)N)C(=O)N[C@@H](C)C(=O)NCC(=O)NCC(=O)NCC(=O)NCC(=O)NCC(=O)N[C@@H](Cc1c[nH]cn1)C(=O)N[C@@H](CO)C(=O)N1CCC[C@H]1C(=O)N1CCC[C@H]1C(=O)N1CCC[C@H]1C(=O)N[C@@H](C)C(=O)N[C@@H](Cc1ccc(O)cc1)C(=O)N[C@H](C(=O)N1CCC[C@H]1C(=O)N[C@@H](CCSC)C(=O)N[C@@H](CO)C(=O)O)[C@@H](C)O)[C@@H](C)O
Kd (WW domain-containing oxidoreductase, WW1-WW2 tandem domains (WWOX, Homo sapiens, UniProt Q9NZC7); ITC; tandem WW1-WW2 domain; pH 7.8, 20 °C, some values lower limits only): 21 ± 1.6 µM

CC(=O)N[C@H]1CC(=O)N[C@@H](Cc2ccccc2)C(=O)N[C@@H](CCCNC(=N)N)C(=O)N[C@H](C(=O)N[C@@H](CC(=O)O)C(=O)N[C@H](C(=O)N[C@@H](CCCNC(=N)N)C(=O)N[C@@H](C)C(=O)N[C@@H](CCC(=O)O)C(=O)N[C@@H](CCCNC(=N)N)C(=O)N[C@@H](C)C(=O)N[C@@H](CCC(=O)O)C(N)=O)C(C)C)CNC1=O
Kd (Amyloid-beta precursor protein, Aβ40 fibrils (APP, Homo sapiens, UniProt P05067); isothermal titration calorimetry; sodium phosphate buffer; pH 8, 25 °C, peptide titrated into protein): 2.9 µM

CCCCCCCC(=O)N[C@@H](CCCCNS(=O)(=O)c1cccc2c(N(C)C)cccc12)C(=O)N[C@H](C(=O)N[C@@H](CCN)C(=O)N[C@H]1CCNC(=O)[C@H]([C@@H](C)O)NC(=O)[C@H](CCN)NC(=O)[C@H](CCN)NC(=O)[C@H](CC(C)C)NC(=O)[C@@H](Cc2ccccc2)NC(=O)[C@H](CCN)NC1=O)[C@@H](C)O
Kd (lipopolysaccharide; binding, fluorescence titration; Pseudomonas aeruginosa; pH 7.0): 1.2 ± 0.2 µM

CC(C)C[C@H](NC(=O)[C@H](CCCNC(=N)N)NC(=O)[C@H](CCC(=O)O)NC(=O)[C@H](CCCCN)NC(=O)[C@H](CCCNC(=N)N)NC(=O)[C@H](CCCCN)NC(=O)[C@H](CCC(=O)O)NC(=O)[C@H](CC(C)C)NC(=O)[C@H](Cc1ccccc1)NC(=O)[C@H](CCCNC(=N)N)NC(=O)[C@H](C)NC(=O)[C@H](CC(C)C)NC(=O)[C@H](CO)NC(=O)[C@H](C)NC(=O)[C@H](CCCCN)NC(=O)[C@H](CCCNC(=N)N)NC(=O)[C@H](C)NC(=O)[C@H](CCC(N)=O)NC(=O)[C@@H]1CCCN1C(=O)[C@@H](NC(=O)[C@H](CO)NC(=O)c1ccc2c(c1)C(=O)OC21c2ccc(N(C)C)cc2Oc2cc(N(C)C)ccc21)C(C)C)C(=O)O
Kd (Transcription factor MYC3 (MYC3, Arabidopsis thaliana, UniProt Q9FIP9); binding, fluorescence anisotropy; pH 8.0, apparent Kd, added: 100 nM TMR-labelled JAZ peptide): 5 ± 1.1 µM

Excerpt of the above:
CC(C)C[C@H](NC(=O)[C@@H]1CCCN1C(=O)[C@H](CC(=O)O)NC(=O)[C@H](CO)NC(=O)[C@H](C)NC(=O)CC1c2ccccc2-c2ccccc21)C(=O)NCC(=O)N[C@H](C(=O)N[C@H](C(=O)N[C@@H](CCCNC(=N)N)C(=O)N1CCC[C@H]1C(=O)N[C@@H](CCCNC(=N)N)C(=O)N[C@@H](C)C(=O)N[C@@H](CCCNC(=N)N)C(N)=O)C(C)C)C(C)C
Kd (Klotho (Kl, Mus musculus, UniProt O35082); BLI competition binding; 30 min, 30 °C, added: 100 nM mouse Klotho, immobilized Pep-10-Biotin): 0.064 ± 0.027 µM
